Results of several laboratories.
Numbered parts are unrelated; each lists some results of a single study.

Set 1
Target: Sal-like protein 4, full length isoform B (SALL4, Homo sapiens, UniProt Q9UJQ4-2, residues 1-616)
Method: universal PBM
Molecule type: double-stranded DNA, one strand shown
Matrix: in vitro
Tested at: not given
Setting: 8-mer, flanks averaged, mean of replicates
Reading: higher = stronger binding
Construct (chain): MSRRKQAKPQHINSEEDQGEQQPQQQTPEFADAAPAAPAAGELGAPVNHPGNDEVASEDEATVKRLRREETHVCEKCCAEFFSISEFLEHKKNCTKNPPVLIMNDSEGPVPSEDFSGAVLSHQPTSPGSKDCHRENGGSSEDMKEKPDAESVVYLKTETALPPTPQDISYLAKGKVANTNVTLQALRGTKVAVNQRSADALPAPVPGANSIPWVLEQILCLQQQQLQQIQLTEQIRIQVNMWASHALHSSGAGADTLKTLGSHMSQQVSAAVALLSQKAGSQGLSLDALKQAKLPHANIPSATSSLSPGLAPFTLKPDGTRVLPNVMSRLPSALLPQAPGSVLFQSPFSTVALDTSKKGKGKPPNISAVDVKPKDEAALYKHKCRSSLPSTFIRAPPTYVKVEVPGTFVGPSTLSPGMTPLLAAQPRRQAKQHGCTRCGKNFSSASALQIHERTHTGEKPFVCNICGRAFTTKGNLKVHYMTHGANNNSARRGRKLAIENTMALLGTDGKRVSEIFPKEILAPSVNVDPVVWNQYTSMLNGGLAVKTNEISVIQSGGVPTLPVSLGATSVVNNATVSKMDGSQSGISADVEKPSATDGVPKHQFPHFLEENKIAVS
Sequence | E-score
CGCACACA | -0.0432
CTTGCCCC | -0.324
TCATTTAA | 0.189
AACCTATC | 0.0354
GCACAATA | 0.191
AGAGATCT | -0.0511
CCAGCGAG | -0.275
GTTCCCAA | -0.146
ACACGTTA | 0.177
AAATCACA | 0.0648
AGGCTACT | 0.0215
AGCATATG | 0.123
GGTCACGA | -0.166
AAGAATGT | 0.0837
CACGGTCA | -0.133
CCAATAAA | 0.287
CGACATAA | 0.2
GAAACCAA | -0.0133
AACCATCG | -0.0308

Set 2
Target: Interferon regulatory factor 5, full length, phosphomimetic (IRF5, Homo sapiens, UniProt Q13568-2, residues 1-514, K96S/S451D/S453D/S456D/S462D)
Method: protein-binding microarray
Molecule type: double-stranded DNA, one strand shown
Matrix: in vitro
Tested at: 250 nM
Setting: 60-bp whole probe
With: salmon DNA 0.4 mg/ml
Reference: random background probes
Reading: higher = stronger binding
Shared flanks, not repeated: GCCTAGCAC … GTCTTGATTCGCTTGACGCTGCTG
Sequence | log fluorescence
GATGGTATCGGGTATCGGGACGTGCTA | 4.46 z-score
GACGATCTCAGACTGGAGAGGTGCTAG | -0.123 z-score
TCATATATTTTAATCACACTGTGCTAG | 0.775 z-score
CACGGTTTCCTTTTCCTGACGTGCTAG | 1.25 z-score
CTAGATCTCAGTCTCGATTAGTGCTAG | 0.614 z-score
GACGGTGTCGACACTGGGGACGTGCTA | -0.368 z-score
GACGATATCGTGTTTCGAGACGTGCTA | 2.76 z-score
GACGGTATCCTTTTCCGGACGTGCTAG | 0.319 z-score
GACGGTATCGGATTTCGGGACGTGCTA | 2.41 z-score
GACGAACTGGGACTGGGGACGTGCTAG | -0.52 z-score
TCACTTTCCTTCTTGATACTGTGCTAG | 2.78 z-score
TTAGGACTGGGGTTTCGGCTAGTGCTA | 2.09 z-score
TTAGGACTGCTACTGGTTTAGTGCTAG | -0.361 z-score
TTAGGACTGGTACTGCTTTAGTGCTAG | -0.285 z-score
GACGATTTCAATATCGAGACGTGCTAG | 2.12 z-score
TTAGGACTGCTTATCCTTTAGTGCTAG | -0.225 z-score
TCAAGAATGTTTTTCATACTGTGCTAG | 0.76 z-score
TTAGGACTGGGGTTTCGGTAAGTGCTA | 5.16 z-score
TTAGATTCCAGTTTCGATCAGTGCTAG | 9.36 z-score
TTACATTTCAGACTGGATTAGTGCTAG | 0.921 z-score
GGACGGCAGTGCACACAGTGGTGCTAG | -0.532 z-score
TCAAGTGTCAATAATGACACTGTGCTA | 0.129 z-score

Set 3
Target: Prothrombin, mature alpha-thrombin (F2, Homo sapiens, UniProt P00734)
Method: aptamer microarray, sandwich
Molecule type: DNA with 2'F-ANA
Matrix: in vitro
Tested at: 200 nM
Setting: whole 15-mer aptamer, many near background
With: Cy3 exosite-II aptamer, 400 nM
Reading: higher = stronger binding
Sequence: GGTTGGTGTGGTTGG
Modification | mean fluorescence intensity [a.u.]
2'F-ANA at 1 3 5 6 8 11 15 | 57.3
2'F-ANA at 1 2 7 8 9 11 | 151
2'F-ANA at 2 3 7 12 13 15 | 1080
2'F-ANA at 1 2 3 4 5 6 9 10 11 12 14 | 48.8
2'F-ANA at 1 2 3 4 5 6 7 11 13 15 | 50.4
2'F-ANA at 1 2 4 7 9 10 12 13 15 | 53.2
2'F-ANA at 1 5 6 7 8 9 10 11 13 14 | 81.8
2'F-ANA at 3 5 6 7 8 9 11 12 13 | 164
2'F-ANA at 3 6 8 | 1120
2'F-ANA at 1 2 5 13 14 15 | 61.3
2'F-ANA at 2 3 6 9 11 12 14 | 375
2'F-ANA at 2 3 4 5 9 11 12 13 14 | 49.2
2'F-ANA at 1 4 7 8 9 11 12 15 | 196
2'F-ANA at 1 4 5 8 9 12 15 | 115
2'F-ANA at 3 6 10 12 14 | 412
2'F-ANA at 1 3 6 7 9 10 | 102
2'F-ANA at 1 3 4 5 7 8 12 13 14 15 | 45
2'F-ANA at 1 2 3 5 6 9 10 11 12 13 15 | 115
2'F-ANA at 1 2 5 6 9 12 14 | 47.2
2'F-ANA at 4 5 6 7 8 10 11 13 14 15 | 56.7
2'F-ANA at 1 2 4 5 8 9 10 12 14 | 48.4
2'F-ANA at 1 3 10 11 | 74.6

Set 4
Target: Hepatocyte nuclear factor 3-beta, forkhead domain (FOXA2, Homo sapiens, UniProt Q9Y261, residues 142-269)
Method: protein-binding microarray
Molecule type: double-stranded DNA, one strand shown
Matrix: in vitro
Tested at: not given
Setting: k-mer, scored over probes, only values ≥0.25
Reading: higher = stronger binding
Residues (chain): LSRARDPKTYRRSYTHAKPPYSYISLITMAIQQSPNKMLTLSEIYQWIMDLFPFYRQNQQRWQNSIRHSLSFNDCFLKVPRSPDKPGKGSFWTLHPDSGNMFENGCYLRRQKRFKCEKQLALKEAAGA
Sequence | E-score
GGAGTAAA | 0.267
TATATATA | 0.381
TATATCAA | 0.302
GGTCAACA | 0.329
ATAATAGA | 0.322
GTGTACTA | 0.255
AGACATTA | 0.275
AACAATGT | 0.361
ATTAACTG | 0.271
CGTATATA | 0.321
CATAAACA | 0.294
ACCACATA | 0.346
ATTATCAC | 0.288
TACACTCA | 0.274
ATATTCAC | 0.259
AACGTACA | 0.283
CTTATAAC | 0.347

Set 5
Target: Fragile X messenger ribonucleoprotein 1, C-terminal low-complexity region (Fmr1, Mus musculus, UniProt P35922)
Method: RNA Bind-n-Seq
Molecule type: RNA
Matrix: in vitro
Tested at: 200 nM
Setting: whole 134-nt RNA, ends assumed
With: 150 mM LiCl
Reference: input library
Reading: higher = stronger binding
All molecules: 7-deaza-guanosine replaces G
Sequence | log2 enrichment
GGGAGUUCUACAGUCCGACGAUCUCCUGUGCUACACAUCGUAUGUACCGAAUCGGGCCCCCCGGCCCCCCGGGGCCCCCCGGAAAGUAUUAUGUUACGCCGUUCGGAUCUGCAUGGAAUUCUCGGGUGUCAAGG | 0.203
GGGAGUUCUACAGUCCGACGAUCAAGUCCUGUGCUACACAUCGUAUGUACCGAAUCGGUUUGGUUUUUGGUUUUUUUGGAAAGUAUUAUGUUACGCCGUUCGGAUCUGCACUUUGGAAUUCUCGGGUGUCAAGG | -1.95
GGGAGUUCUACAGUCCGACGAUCAGUCCUGUGCUACACAUCGUAUGUACCGAAUCGGGUUUUGGGUUUUGGGUUUUGGGGAAAGUAUUAUGUUACGCCGUUCGGAUCUGCACUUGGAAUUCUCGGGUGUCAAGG | -1.17
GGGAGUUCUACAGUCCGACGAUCUAACUUUAGAGGAGGAUCUGAUGGAUAUGGCAGUGGACGUGGAUUGGGGGAUGGCUAUAAUGGGUAUGGAGGAGGACCUGGAGGUGGCAAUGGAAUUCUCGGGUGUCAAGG | 0.661
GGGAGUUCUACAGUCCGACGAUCCUCAAGUCCUGUGCUACACAUCGUAUGUACCGAAUCGGAAAGGUGGUUUUUGGAAAGUAUUAUGUUACGCCGUUCGGAUCUGCACUUCCAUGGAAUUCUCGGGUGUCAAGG | -0.187
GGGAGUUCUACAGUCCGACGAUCUGGCCGGUGGCCGUGAGAACACGCUGUGUGGCUGAAAAGUGAAGGCAAGAGCUGAUUUGGCCUCUGUGCUCCCCUCCGCAAGGGGAUCGUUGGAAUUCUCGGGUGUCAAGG | -0.224
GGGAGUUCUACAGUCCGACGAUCCAAGUCCUGUGCUACACAUCGUAUGUACCGAAUCGGGCCCGGGGCCCGGGCCCGGAAAGUAUUAUGUUACGCCGUUCGGAUCUGCACUUCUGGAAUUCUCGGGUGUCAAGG | -1.8
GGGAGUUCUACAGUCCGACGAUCCACAGACAACACGCACCCACACAGACACAGAGGGAAGGGGUUGGGAUGGGUACAGGGUGCACAGCAGGGCGGGGUAGGACCCCAGCCCCUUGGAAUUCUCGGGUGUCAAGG | 0.122
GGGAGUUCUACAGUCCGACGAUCUCCUGUGCUACACAUCGUAUGUACCGAAUCGGGGUUUUUGGGGAAAAAAAGGGGUGGGGAAAGUAUUAUGUUACGCCGUUCGGAUCUGCAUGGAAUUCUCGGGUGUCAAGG | -1.03
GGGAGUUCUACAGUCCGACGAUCUCAAGUCCUGUGCUACACAUCGUAUGUACCGAAUCGGGUUUGGUUUGGGGUUUGGAAAGUAUUAUGUUACGCCGUUCGGAUCUGCACUUCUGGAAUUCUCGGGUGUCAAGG | -1.89
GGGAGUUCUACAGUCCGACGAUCUGUGCUACACAUCGUAUGUACCGAAUCGGGAAAAAAAGGGAAAAAAAGGGGAAAAAAAGGGGAAAGUAUUAUGUUACGCCGUUCGGAUCUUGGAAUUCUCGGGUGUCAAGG | 0.581

Set 6
Target: Hepatocyte nuclear factor 3-alpha (Foxa1, Mus musculus, UniProt P35582, residues 1-468, full length assumed)
Method: EMSA with sequencing
Molecule type: double-stranded DNA, one strand shown
Matrix: in vitro
Tested at: 10 and 20 nM
Setting: whole designed probe, mean of two concentrations, ends assumed
Reference: negative control set to 0
Reading: higher = stronger binding
Sequence | normalised bound fraction [ratio]
GTGAGCGGTGCCCATTGATGGGGAACTCTAGTGCTCACAGAACGGCATCGCCGCGGCTCTTCTTCGCTGTGTGTCTGTGCCAAGTCTATCCAACGCCGCCAAAGTCCCCTCTGCTCTCAGCAATCTCAGGTGAAGCTCTTGCCTTCTTAAATCCTTGACTTGACCTTGCTGTCCCATAAGTCCTGAATTTCTCCTTTTCACGAGGAAGCTCTTGGAACATTTCACTGGGATCGTGGGGAC | -0.0803
GTGAGCGGTGCCCATTGATGGGGAACTTTCAAATAAAACAATGTCTTTAAAGAGGACTAAGATTGCAAATGAATGCTTTTAAAGAAATGCAGGAGGATAAATTAGCAAGCAGGAAACAATGTAATCTAATATTTGTGTCCAATTATTGAAAGTGTTTCAATAAGCATGGATAAAGTGGCCTTTAAGCAATCATGATACAGCTAAAAAAGACAATTTTAGTTTCACTGGGATCGTGGGGAC | 0.0449
GTGAGCGGTGCCCATTGATGGGGAACCCCATGTTAAGAGGCCAGGCAGACAGACCTAGGGCTGGATCTGCAGATAAGTCATCTACACTGGACCCTTGGCTTTGCTTTTAATTGGTTCAATATTTGCACAGAGTCAACTCACCTGCGCCTTACCTACTCAATAACAAGCTTTCTCTCAGTCACCCAGAAGAAACTGCAAAGAAAAGCAAATTGTTTCAGGTTTCACTGGGATCGTGGGGAC | 0.348
GTGAGCGGTGCCCATTGATGGGGAACGAACAAAATACTTTTTGGCCTGCTTAATGTGGGAGAACATATAGACTTTTCTAGTTTCAGAGGTACTGGGAGACACTCCACATCACCTCAGTGTAATCTAGTGGTTCAGATCTCTGCTGTGAATATAGGCAGCTTTGGCTAAAATCCTGTTTTGTTTTGTTTTCTTTTTTGTTTTACAATAACTTAGTAACTTTTTCACTGGGATCGTGGGGAC | 0.0612

A few entries again (set 4):
Sequence | E-score
GGTCAACA | 0.329
ATAATAGA | 0.322
GTGTACTA | 0.255
AGACATTA | 0.275
AACAATGT | 0.361
ATTAACTG | 0.271
CGTATATA | 0.321
CATAAACA | 0.294
